Experimental data gathered from unrelated publications.
Every numbered part comes from another study and shows a few of its results, in no order. Positions count from the first letter of the parent shown.

Series 1 — target: UBE2J1 UBC core domain (UniProt Q9Y385); technique: yeast two-hybrid; medium: yeast; notes: mostly zero background; relative to: not given; reading: higher = stronger interaction
Chain of UniProt Q9Y385 (whole entry, looked up): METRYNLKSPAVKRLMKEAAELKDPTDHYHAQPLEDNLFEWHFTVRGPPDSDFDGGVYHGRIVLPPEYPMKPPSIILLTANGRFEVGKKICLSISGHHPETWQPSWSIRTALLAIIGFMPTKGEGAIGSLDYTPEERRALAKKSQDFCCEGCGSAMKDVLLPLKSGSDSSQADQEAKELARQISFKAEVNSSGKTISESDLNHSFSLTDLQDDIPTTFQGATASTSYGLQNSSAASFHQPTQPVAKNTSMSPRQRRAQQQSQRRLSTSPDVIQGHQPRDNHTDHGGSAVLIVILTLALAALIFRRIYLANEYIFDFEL
B1: RFWD3 RING domain (UniProt Q6PCD5); chain ASMDEEEGDTCTICLEQWTNAGDHRLSALRCGHLFGYRCISTWLKGQVRKCPQCNKKARHSDIVV
B2: SH3RF1 RING domain (UniProt Q7Z6J0); chain DESALLDLLECPVCLERLDASAKVLPCQHTFCKRCLLGIVGSRNELRCPECRTLVGSGVEEL
B3: MDM4 RING domain (UniProt O15151); chain MEDCQNLLKPCSLCEKRPRDGNIIHGRTGHLVTCFHCARRLKKAGASCPICKKEIQLVIKVF
B4: RNF121 RING domain (UniProt Q9H920); chain MPTKHLSDSVCAVCGQQIFVDVSEEGIIENTYRLSCNHVFHEFCIRGWCIVGKKQTCPYCKEKVDLKRMFS
B5: DZIP3 RING domain (UniProt Q86Y13); chain PDEEEEEEEPCVICHENLSPENLSVLPCAHKFHAQCIRPWLMQQGTCPTCRLHVLLPEEFP
Sequence | lacZ reporter activity
B1 (RFWD3 RING domain) | 0
B2 (SH3RF1 RING domain) | 0
FDGDVDPDLKCALCHKVLEDPLTTPCGHVFCAGCVLPWVVQEGSCPARCRGRLSAKELN (PDZRN3 RING domain (UniProt Q9UPQ7)) | 0
GSRLQEINDVCAICYHEFTTSARITPCNHYFHALCLRKWLYIQDTCPMCHQKVYIEDDIK (RNF139 RING domain (UniProt Q8WU17)) | 0
KETIKKTTKPCPRCHVPVEKNGGCMHMKCPQPQCRLEWCWNCGCEWNRVCMG (PRKN RING domain (UniProt O60260)) | 0
B3 (MDM4 RING domain) | 0
KLRKLKEAMLCMVCCEEEINSTFCPCGHTVCCESCAAQLQSCPVCRSRVEHVQHVY (MYLIP RING domain (UniProt Q8WY64)) | 0
B4 (RNF121 RING domain) | 0
AMYLQENGIDCPKCKFSYALARGGCMHFHCTQCRHQFCSGCYNAFYAKNKC (RNF31 RING domain (UniProt Q96EP0)) | 0
B5 (DZIP3 RING domain) | 0

Series 2 — technique: protein-binding microarray; molecule type: double-stranded DNA, one strand shown; medium: in vitro; concentration: 0.8 µM; notes: whole 60-bp probe, no competitor; reading: higher = stronger binding
Target: Centromere-binding protein 1, full length, N-terminal tag (CBF1, Saccharomyces cerevisiae, UniProt P17106, residues 1-351)
Chain of UniProt P17106 (whole entry, looked up): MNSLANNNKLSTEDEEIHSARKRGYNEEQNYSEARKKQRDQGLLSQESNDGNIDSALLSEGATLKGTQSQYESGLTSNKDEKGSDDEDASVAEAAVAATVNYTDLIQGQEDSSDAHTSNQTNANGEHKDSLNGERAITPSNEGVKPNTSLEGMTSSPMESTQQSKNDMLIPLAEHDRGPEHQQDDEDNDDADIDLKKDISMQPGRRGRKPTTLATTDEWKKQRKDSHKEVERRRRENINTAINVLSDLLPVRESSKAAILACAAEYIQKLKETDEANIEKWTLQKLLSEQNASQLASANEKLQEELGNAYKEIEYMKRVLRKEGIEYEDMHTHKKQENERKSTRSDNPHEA
Sequence | fluorescence intensity [a.u.]
GAATTACCTCCTATTCTCGTGCCTGAGCAGCGATAGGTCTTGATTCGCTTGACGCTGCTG | 552
CTAAGGTTCCTAGATCAGATGAAGCCTTTTGTATTCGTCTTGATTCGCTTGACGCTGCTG | 526
CTAGGTGAAGGGTAATACATCAGGTAGGTTGAATTCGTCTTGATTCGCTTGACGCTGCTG | 501
GAAAGCAATGAAGATAACGTGTACAGACTTGGTTAGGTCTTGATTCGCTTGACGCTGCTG | 620
CTATGAAAAAGGGTCTTGGTGGTGTTGCAGTTGTTCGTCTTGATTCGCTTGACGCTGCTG | 526
GAAAGTTGACTAGTACACGCAACGAAATACTAATAGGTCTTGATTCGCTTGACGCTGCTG | 528
GAAAGCGATGAGATGATCATTTCTTATAGGGATTAGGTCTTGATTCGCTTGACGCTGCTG | 493
TGTACGAAGCTATATCACGTGGCTATAGTAGTTAGGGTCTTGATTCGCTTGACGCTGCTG | 10500
CTAAGGTCCCCTCACCACGAAAATCCAAGATTTTTCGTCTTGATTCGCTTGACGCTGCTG | 468
CTAATGCAAAGTTGACACGTTCAGTTACTATTTTTCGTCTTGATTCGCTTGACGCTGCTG | 544
CTAGTGATCAGTTCTCACATGCATCATCCTTTATTCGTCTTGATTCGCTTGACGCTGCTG | 636
GAATCCCAAGCAATAAACGTGAAATCTGTTTTGTAGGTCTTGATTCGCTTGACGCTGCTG | 558
GAAGCCGATAATAGCTACGTGGTGGGAAGGCTGTAGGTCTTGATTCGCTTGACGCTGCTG | 486
CTAATCAATTGAGATCACGTGCAAACCGAAGAATTCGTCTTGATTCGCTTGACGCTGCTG | 17900
CCTAACTACTATACTTTCGTGATATAGCTTCGTACAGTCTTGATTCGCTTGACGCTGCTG | 536
CCTAACTACTATAACGTGTGCAGATAGCTTCGTACAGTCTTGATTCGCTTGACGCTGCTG | 668
CTATGTTAGAAAAGGCATGTGCACTCACAATTCTTCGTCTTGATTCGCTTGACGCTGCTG | 635
CTATTTTTTTAGCGTCACGTTAATCAGCCCAATTTCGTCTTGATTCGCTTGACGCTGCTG | 1450
GAATTTGAAGCAATGCACGCCGGTTTTCTTTATTAGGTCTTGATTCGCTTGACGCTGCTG | 477
CTAATGACACTATTAAACGTGACGGTGCTGCTGTTCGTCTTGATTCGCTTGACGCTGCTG | 890
GAACAAAGCCTTACTCATCAGATTTTTTCAAATTAGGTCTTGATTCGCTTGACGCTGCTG | 498
CTATAAAACAACACTCACGTAATAAAAAATCCTTTCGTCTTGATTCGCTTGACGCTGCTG | 539
TGTACGAAGCTATACCACGTTAATATAGTAGTTAGGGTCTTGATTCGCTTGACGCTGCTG | 550
CTACAAAAGGTTAGTAACATCAATATATCGCGGTTCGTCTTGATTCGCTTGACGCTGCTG | 534

Series 3 — technique: EMSA with sequencing; molecule type: double-stranded DNA, one strand shown; medium: in vitro; concentration: 10 and 20 nM; relative to: negative control set to 0; reading: higher = stronger binding
Target: Hepatocyte nuclear factor 3-alpha (Foxa1, Mus musculus, UniProt P35582, residues 1-468, full length assumed)
Notes: whole designed probe, mean of two concentrations, ends assumed
Construct (chain): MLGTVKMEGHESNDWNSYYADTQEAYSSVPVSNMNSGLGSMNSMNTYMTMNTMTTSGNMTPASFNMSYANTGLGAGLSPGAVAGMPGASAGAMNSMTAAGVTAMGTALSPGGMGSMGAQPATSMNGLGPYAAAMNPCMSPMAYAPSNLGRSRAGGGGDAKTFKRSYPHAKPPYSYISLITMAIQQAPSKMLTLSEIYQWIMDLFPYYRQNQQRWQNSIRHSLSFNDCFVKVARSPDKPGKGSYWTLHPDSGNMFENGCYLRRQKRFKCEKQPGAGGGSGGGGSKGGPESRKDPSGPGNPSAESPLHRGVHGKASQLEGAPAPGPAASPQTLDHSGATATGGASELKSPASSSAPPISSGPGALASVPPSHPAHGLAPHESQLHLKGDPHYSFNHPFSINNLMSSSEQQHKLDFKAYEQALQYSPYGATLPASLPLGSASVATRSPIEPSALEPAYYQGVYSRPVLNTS
Sequence | normalised bound fraction [ratio]
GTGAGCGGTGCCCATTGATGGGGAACCGAGAAGCTCCTTGAAATACAAAGGGAAACAAGGCAGTGCCTCTCTCCTTAGTGGGCAAGGCAGGGAGGGGGCAGCAATGGTAGCAGCTCACCATGTTTACTTTGTTTTTTAATTTCAAATTCACACACAATGAGGTATCTGCGTTCCATTACAATATGACTGCCAGGGCAAGCCTAGTTTATTACTTTCTTATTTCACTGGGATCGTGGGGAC | 0.383
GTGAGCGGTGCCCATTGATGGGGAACTATCTCGTTACATGGCCTTCTTCCTTAGAACTTTTCAATATGGTATTAACTTCCTCATCCCTGATCTTGCCCTTAATTCCCAGTTTAAAGTCTTTGTTTACTTTGGAAATGACTTTTCGCCTGAGTGAAAAAAAAACGTGTTCTCAACCCATTTGTAGACTAACTCAGGCTCTGAAAATGATTGAAGCTGTGGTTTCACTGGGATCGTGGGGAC | 0.465
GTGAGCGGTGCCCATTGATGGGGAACGGGGATTCTTTCATTATACAAATACATGTTATTTTTGAATTTCAAAAGAAATCATGTTATGTCAATCTATTGAGTGCTAACTAAAAGTTCTCTTTGTTTACTTAGCTTTCTCTTAGTTGTAAGAAAGAAAGAGACTTCTTGCATGAAAATAGTATGTTGCGGGAAGAAATTGCCATGCTAAGACTGGAGCTAGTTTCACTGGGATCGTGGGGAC | 0.505
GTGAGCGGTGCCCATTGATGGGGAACGAATCTACAGACTGGTGATTGTAAAGATTGTTCTAGCTTTTACTATTCTATACAGTGTTCTAAATATGGAGTAGGAAGAGATTTATTGGACAATGTAAACATATAGTCTGAAACTAAGGCTGTAATACTCATACTGTTTATAGCTGCCAACAATTTCTTCCAACAAAAGGGTTAGTAAAATTTGGTCAATAGTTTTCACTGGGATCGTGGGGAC | 0.404
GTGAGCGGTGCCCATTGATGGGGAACAGCTGGATGACCCTGGCCCGAAAGTCACAGTTCAGTTGCCTTATTCCTAGTTCAGGCTTACTATCTAGAACCTCATGCTAGCTTAGGTTGCATGTTTACATTGCTGCAGTGTCTTTACTGGAAGCTTAGTTGGATCGAAATGGACACCGAGATGGAGATGCTTCTGGCTAGATTTCGCAGAACCCCAGGAGACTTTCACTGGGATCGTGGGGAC | 0.356
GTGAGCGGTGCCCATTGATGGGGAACAAAACAAACAAATAAAACAACTAGTATGGAAGCTAGAATAATGTGATGCACCATTACACCAAATATTCAGTCTTAACATGGTTTTTAATATTATGTAAACATGGAAGGTATTGCCATTGTTCATATGATACAGAATCAATGGCACTCACAAGCATCTGAATATGTTGAAAAATGGCACCTTCAAATAAAAATTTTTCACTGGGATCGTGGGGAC | 0.535
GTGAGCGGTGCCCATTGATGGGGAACCAAGTTTGTGGTCCAGGAGCAACAGGTTATGCCATACAGCCTAGGTGTGTAGTAGGCTACACACCGTCTATGTTTGTGTTGTACACTCTACAATGTTTGCACAATGATCCATGACTCATGAAATCTTCTCAGAACATACCCCTGTTGTTAAGCGATACATGACTGTACTTTTTTTAAAAAGTCCAAGGATATATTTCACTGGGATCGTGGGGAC | 0.442
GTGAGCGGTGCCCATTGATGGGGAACTTAGGTCAACAGAGAAAAAAAAAAACTCCAGCCACTCCCGCCTCCCTTCCTTCCTCATTCCTCCACACAGCTAGCCTTTTAAAACAATCTAAGTAAACAGCAAAGTAACATCTATTTGAGTTACACATTGGTTCACATGCTGAGAAGAAGAAAAAAAAATGCCTATAAAAGTCTTTAGAAAAAGGAGAGGTTCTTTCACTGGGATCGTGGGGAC | 0.364

Series 4 — target: CCND3, cyclin fold, Cln2 fusion (human); technique: yeast growth competition, sequencing; medium: yeast; notes: weak parent motif; relative to: not given; reading: higher = stronger binding
Starting sequence: RRM2 docking peptide (human); SKTARRIFQEPTE
Substitution | normalised enrichment score
SKTARRIFQEPAE [T12A] | -0.0198
SKTARRAFQEPTE [I7A] | 0.292
SKTARAIFQEPTE [R6A] | 0.0545
SKTAARIFQEPTE [R5A] | 0.232
SKTARRIFQAPTE [E10A] | 0.0487
SATARRIFQEPTE [K2A] | 0.246

A few entries again (series 2):
Sequence | fluorescence intensity [a.u.]
CTAGGTGAAGGGTAATACATCAGGTAGGTTGAATTCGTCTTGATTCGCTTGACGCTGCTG | 501
GAAAGCAATGAAGATAACGTGTACAGACTTGGTTAGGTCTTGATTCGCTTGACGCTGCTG | 620
CTATGAAAAAGGGTCTTGGTGGTGTTGCAGTTGTTCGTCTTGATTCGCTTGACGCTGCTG | 526
GAAAGTTGACTAGTACACGCAACGAAATACTAATAGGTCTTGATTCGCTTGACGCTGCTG | 528
GAAAGCGATGAGATGATCATTTCTTATAGGGATTAGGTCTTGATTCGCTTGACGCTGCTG | 493
TGTACGAAGCTATATCACGTGGCTATAGTAGTTAGGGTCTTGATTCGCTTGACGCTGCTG | 10500
CTAAGGTCCCCTCACCACGAAAATCCAAGATTTTTCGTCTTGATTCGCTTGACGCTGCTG | 468
CTAATGCAAAGTTGACACGTTCAGTTACTATTTTTCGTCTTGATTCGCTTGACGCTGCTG | 544
